# Measurements collected from several papers.
# ± gives the spread as reported.
# Ugcg: Ceramide glucosyltransferase (Ugcg, Mus musculus, UniProt O88693)
# UniProt O88693, sequence (whole entry, looked up): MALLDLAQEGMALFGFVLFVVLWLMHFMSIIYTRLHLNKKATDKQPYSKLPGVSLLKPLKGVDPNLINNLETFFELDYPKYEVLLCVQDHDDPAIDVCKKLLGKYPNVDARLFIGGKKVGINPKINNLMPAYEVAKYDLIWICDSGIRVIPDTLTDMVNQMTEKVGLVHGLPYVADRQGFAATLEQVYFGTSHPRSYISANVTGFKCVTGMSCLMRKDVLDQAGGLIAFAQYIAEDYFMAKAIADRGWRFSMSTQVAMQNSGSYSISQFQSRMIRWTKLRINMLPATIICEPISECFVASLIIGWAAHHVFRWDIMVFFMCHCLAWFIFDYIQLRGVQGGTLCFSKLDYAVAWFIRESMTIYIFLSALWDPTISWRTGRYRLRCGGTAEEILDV
SMILES,target or system,test,test system,setting,scale,measurement,value
C=CC(=O)N1[C@H](c2ccc3c(c2)OCO3)c2[nH]c3ccccc3c2C[C@@H]1C(=O)N1CCN(C)CC1,human cyclin E1 N112C-3xFLAG:CDK2,"co-IP with TMT proteomics, measured: RBMX",,"concentration not given, P38159",relative to: wild type DMSO,relative co-enrichment,153%
O=C(N/N=C/c1cc[n+](CC2CC2)c2ccccc12)c1cccc(C(=O)N/N=C/c2cc[n+](CC3CC3)c3ccccc23)n1,22CTA telomeric G4-DNA antiparallel,FRET melting,,"1 µM, K10 buffer, DNA 0.2 µM, with: ds26 10 µM",,ΔTm,17.9 ± 0.5 °C
COC1CN([C@H]2CC[C@H]([C@@]3(C)Oc4c(Cl)cc(C(=O)NCc5c(SC)cc(C)[nH]c5=O)c(C)c4O3)CC2)C1,,"RNA-seq, measured: PURA","human, whole blood","dose not given, 24 h",relative to: pretreatment baseline,log2 fold change,1.1
C=C(NC(=O)c1csc(-c2nc3c(cc2O)-c2nc(cs2)C(=O)NC(C(C)O)C(=O)NC(=C(C)OC)c2nc(cs2)C(=O)NC2c4nc(cs4)C(=O)NC(COC(=O)c4c5c6c(cccc6n4O)COC(=O)C(OC4CC(C)(O)C(N(C)C)C(C)O4)C2OC5)c2nc-3cs2)n1)C(N)=O (centres unmarked),Streptococcus pneumoniae,,"-25, immunocompromised mice, lung","32 mg/kg/day once daily, 24 h post-dose",,lung bacterial load,3.98 log10 CFU/lung
C[n+]1cc(/C=N/NC(=O)C(=O)N/N=C/c2cc3ccccc3[n+](C)c2)cc2ccccc21,22CTA telomeric G4-DNA antiparallel,FRET melting,,"1 µM, K10 buffer, DNA 0.2 µM, with: ds26 10 µM",,ΔTm,2.2 ± 0.6 °C
O=C(NCc1cccc(Cl)c1)c1ccc([C@H]2[C@@H](F)[C@@H](F)C[C@@H](F)[C@H]2F)cc1,,liver microsome stability,human liver microsomes,"1 µM, without NADPH",,hepatic clearance,3.9 mL/min/kg
COC1OC(C)C(OS(=O)(=O)O)C(OC2OC(C)C(OS(=O)(=O)O)C(OC3OC(C)C(OS(=O)(=O)O)C(OC4OC(C)C(OS(=O)(=O)O)C(OC5OC(C)C(OS(=O)(=O)O)C(OC6OC(C)C(OS(=O)(=O)O)C(OC7OC(C)C(OS(=O)(=O)O)C(OC8OC(C)C(OS(=O)(=O)O)C(OC9OC(C)C(OS(=O)(=O)O)C(OC%10OC(C)C(OS(=O)(=O)O)C(OC%11OC(C)C(OS(=O)(=O)O)C(OS(=O)(=O)O)C%11O)C%10O)C9O)C8O)C7O)C6O)C5O)C4O)C3O)C2O)C1O (centres unmarked),,,human plasma,128 µg/mL,,activated partial thromboplastin time,43.5 ± 0.3 s
C[n+]1ccc(/C=N/NC(=O)c2cccc(C(=O)N/N=C/c3cc[n+](C)cc3)c2)cc1,22CTA telomeric G4-DNA antiparallel,FRET melting,,"1 µM, K10 buffer, DNA 0.2 µM, with: ds26 10 µM",,ΔTm,1.8 ± 0.3 °C
Cc1ncsc1-c1ccc(C(C)NC(=O)C2CC(O)CN2C(=O)C(NC(=O)CCCCCCCCCCN2CCCC(Nc3ncc(Cl)c(Nc4ccccc4S(=O)(=O)C(C)C)n3)C2)C(C)(C)C)cc1 (centres unmarked),22Rv1,"RNA-seq, measured: PTPRE mRNA",,concentration not given,relative to: DMSO,log2 fold change,-1.52
Nc1nc2cc(CC[C@H]3C[C@@H](n4ccc5c(N)ncnc54)[C@H](O)[C@@H]3O)ccc2cc1Br,,,"NCI-H1048 xenograft, mouse","1.0 mg/kg/day, day 28",,%ΔTGI,45.5%
COC1OC(C)C(O)C(OC2OC(C)C(O)C(OC3OC(C)C(O)C(OC4OC(C)C(O)C(OC5OC(C)C(O)C(OS(=O)(=O)O)C5OS(=O)(=O)O)C4OS(=O)(=O)O)C3OS(=O)(=O)O)C2OS(=O)(=O)O)C1OS(=O)(=O)O (centres unmarked),,,human plasma,128 µg/mL,,activated partial thromboplastin time,35.1 ± 0.7 s
C=CC(=O)Nc1cccc(Cn2ncc3cnc(Nc4cnn(CCOC)c4)nc32)c1,EGFR human,"binding, KINOMEscan",,100 nM,lower = stronger binding,percent of control,100%
COC1OC(C)C(O)C(OC2OC(C)C(O)C(OC3OC(C)C(O)C(OC4OC(C)C(O)C(OC5OC(C)C(O)C(OC6OC(C)C(O)C(OC7OC(C)C(O)C(OC8OC(C)C(O)C(OC9OC(C)C(O)C(OS(=O)(=O)O)C9OS(=O)(=O)O)C8OS(=O)(=O)O)C7OS(=O)(=O)O)C6OS(=O)(=O)O)C5OS(=O)(=O)O)C4OS(=O)(=O)O)C3OS(=O)(=O)O)C2OS(=O)(=O)O)C1OS(=O)(=O)O (centres unmarked),,,human plasma,128 µg/mL,,activated partial thromboplastin time,40.9 ± 0.9 s
O=c1c(Oc2ccccc2)c(C(F)(F)F)oc2c(O)c(O)ccc12,ROC1-CUL1 E3 subcomplex,Cdc34-ubiquitin discharge,,300 µM,relative to: input,Cdc34b-ubiquitin remaining,26%
CO[C@@H]1[C@@H](OC(N)=O)[C@@H](O)[C@H](Oc2ccc3c(O)c(NC(=O)c4ccc(O)c(CC=C(C)C)c4)c(=O)oc3c2C)OC1(C)C,DLD-1 BRCA2-/-,,,"300 µM, replicate 2",,colony count,0.1
C[n+]1cc(/C=N/NC(=O)c2cccc(C(=O)N/N=C/c3cc4ccccc4[n+](C)c3)c2)cc2ccccc21,22CTA telomeric G4-DNA antiparallel,FRET melting,,"1 µM, K10 buffer, DNA 0.2 µM, with: ds26 10 µM",,ΔTm,7.3 ± 0.4 °C
OC[C@@H]1[C@@H](O)[C@H](O)[C@@H](O)CN1CCCCCOCc1ccccc1-c1ccccc1,Ugcg,"enzyme activity, inhibitor, fluorescence",,,,IC50,50 nM
O=C(Nc1ccc([C@H]2[C@@H](F)[C@@H](F)C[C@@H](F)[C@H]2F)cc1)C1(N2CCOCC2)CC1,,liver microsome stability,human liver microsomes,"1 µM, without NADPH",,hepatic clearance,3.9 mL/min/kg
c1ccc(-c2n[nH]cc2-c2ccnc3ccccc23)nc1,RTK1 (Candida albicans),"kinase binding, MIB/MS competition",Candida albicans lysate,10 µM,relative to: DMSO,log2 fold change,0.03
CC[n+]1cccc2cc(/C=N/NC(=O)c3cc(C(=O)N/N=C/c4ccc5c(ccc[n+]5CC)c4)ncn3)ccc21,22CTA telomeric G4-DNA antiparallel,FRET melting,,"1 µM, K10 buffer, DNA 0.2 µM, with: ds26 10 µM",,ΔTm,4.3 ± 0.9 °C
OC[C@H]1[C@@H](O)[C@H](O)[C@@H](O)CN1CCCCCOCC1CCCCC1,Ugcg,"enzyme activity, inhibitor, fluorescence",,,,IC50,70 nM
C[n+]1cccc2cc(/C=N/NC(=O)c3ccc4ccc(C(=O)N/N=C/c5ccc6c(ccc[n+]6C)c5)nc4n3)ccc21,22CTA telomeric G4-DNA antiparallel,FRET melting,,"1 µM, K10 buffer, DNA 0.2 µM, with: ds26 10 µM",,ΔTm,11 ± 0.2 °C
Nc1ncc(-c2cc(-c3cnn(CC(F)(F)F)c3)ncc2F)nc1C(=O)NC1CNCC(F)C1 (centres unmarked),CSF1R,KINOMEscan,,1 µM,relative to: DMSO control,remaining binding,97%

# Repeated from above:
SMILES,target or system,test,test system,setting,scale,measurement,value
COC1OC(C)C(OS(=O)(=O)O)C(OC2OC(C)C(OS(=O)(=O)O)C(OC3OC(C)C(OS(=O)(=O)O)C(OC4OC(C)C(OS(=O)(=O)O)C(OC5OC(C)C(OS(=O)(=O)O)C(OC6OC(C)C(OS(=O)(=O)O)C(OC7OC(C)C(OS(=O)(=O)O)C(OC8OC(C)C(OS(=O)(=O)O)C(OC9OC(C)C(OS(=O)(=O)O)C(OC%10OC(C)C(OS(=O)(=O)O)C(OC%11OC(C)C(OS(=O)(=O)O)C(OS(=O)(=O)O)C%11O)C%10O)C9O)C8O)C7O)C6O)C5O)C4O)C3O)C2O)C1O (centres unmarked),,,human plasma,128 µg/mL,,activated partial thromboplastin time,43.5 ± 0.3 s
C[n+]1ccc(/C=N/NC(=O)c2cccc(C(=O)N/N=C/c3cc[n+](C)cc3)c2)cc1,22CTA telomeric G4-DNA antiparallel,FRET melting,,"1 µM, K10 buffer, DNA 0.2 µM, with: ds26 10 µM",,ΔTm,1.8 ± 0.3 °C
Cc1ncsc1-c1ccc(C(C)NC(=O)C2CC(O)CN2C(=O)C(NC(=O)CCCCCCCCCCN2CCCC(Nc3ncc(Cl)c(Nc4ccccc4S(=O)(=O)C(C)C)n3)C2)C(C)(C)C)cc1 (centres unmarked),22Rv1,"RNA-seq, measured: PTPRE mRNA",,concentration not given,relative to: DMSO,log2 fold change,-1.52
Nc1nc2cc(CC[C@H]3C[C@@H](n4ccc5c(N)ncnc54)[C@H](O)[C@@H]3O)ccc2cc1Br,,,"NCI-H1048 xenograft, mouse","1.0 mg/kg/day, day 28",,%ΔTGI,45.5%
